{"data": "Experimental data of several laboratories", "note": "Each numbered part is a random draw from the data of one study; scales do not carry over between parts. Positions count from the first letter of the parent shown.", "UniProt P43403, sequence (whole entry, looked up)": "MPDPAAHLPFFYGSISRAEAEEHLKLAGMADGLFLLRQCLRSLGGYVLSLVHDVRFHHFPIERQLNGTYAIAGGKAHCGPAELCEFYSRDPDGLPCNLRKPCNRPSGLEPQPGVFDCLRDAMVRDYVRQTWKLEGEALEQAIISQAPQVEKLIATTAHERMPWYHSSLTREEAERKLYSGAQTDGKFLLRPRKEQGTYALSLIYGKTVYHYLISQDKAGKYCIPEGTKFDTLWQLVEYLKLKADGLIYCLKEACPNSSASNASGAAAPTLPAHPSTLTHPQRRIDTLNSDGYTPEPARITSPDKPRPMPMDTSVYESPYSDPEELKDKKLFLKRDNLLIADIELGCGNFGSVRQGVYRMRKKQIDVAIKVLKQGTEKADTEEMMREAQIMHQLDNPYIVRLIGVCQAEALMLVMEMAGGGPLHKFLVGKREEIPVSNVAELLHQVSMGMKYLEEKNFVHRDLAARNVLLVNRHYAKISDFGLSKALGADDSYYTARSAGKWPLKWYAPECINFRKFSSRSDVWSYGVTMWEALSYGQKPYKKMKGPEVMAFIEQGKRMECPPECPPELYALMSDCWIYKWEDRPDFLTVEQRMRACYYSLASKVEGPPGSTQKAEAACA"}
{"data": "Block 1", "target": "RNA binding protein fox-1 homolog 2, RRM domain, GST-SBP tag (RBFOX2, Homo sapiens, UniProt O43251-10, residues 100-194)", "technique": "RNA Bind-n-Seq", "form": "RNA", "medium": "in vitro", "concentration": "365 nM", "notes": "natural RNA segment, single round, ends assumed", "reference": "no-protein control", "direction": "higher = stronger binding", "constant ends, left off below": "GGGAGUUCUACAGUCCGACGAUC … UGGAAUUCUCGGGUGCCAA", "Construct (chain)": "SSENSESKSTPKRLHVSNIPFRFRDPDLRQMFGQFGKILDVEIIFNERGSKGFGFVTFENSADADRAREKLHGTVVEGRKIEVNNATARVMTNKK"}
{"Oligonucleotide": "UAUUUUGAUAAACACUGAAGCUGGAGCUGUUAAAUUUAUCUUGGGGAAACCUCAGAACUGGUCUAUUUGGUGUCGUGGAACCUCUUACUGCUUUCAAUACACGAUUAGUA", "RBNS enrichment (R)": 0.381}
{"Oligonucleotide": "GAGAGGCACUCAGAAUCCCCUGUAUGGAUGGAAGCCACACCCCCAAAGCCUCUCCAGCUAGCUGGGGCUCCUCCCCCUUCUGAGAGACUUGCGCUCCCGCAGGGAACACA", "RBNS enrichment (R)": 0.466}
{"Oligonucleotide": "CUUCCUGACUGCUUUCUCCAACUGUUCACAGCAAAUGCUUGGAUUUUAUGCAGUAGGCAUUACUACAGUACAUGGCUAAUCUUCCCAAAAACUAGCUCAUUAAAGAUGAA", "RBNS enrichment (R)": 0.336}
{"Oligonucleotide": "UUCCCUUCCCUCACCCCUGACAUGUACCCCCUUUCCCUUCUGGCUGUUCCCCUGCUCUGUUGCCUCUCUAAGGUAACAUUUAUAGAAGAAAUGGAAUGAAUCUCCAAGGC", "RBNS enrichment (R)": 0.589}
{"Oligonucleotide": "CUAUUAUGUCUUGUAAAUUUCUUUUGUUGGUGUAAAUAUGGAAAUGCCACAUUGGUUAAGUGCCAUCAUUUGUAAUGCAAUGUGUCACUUGAAAAGAGAUUUGAAGAAAC", "RBNS enrichment (R)": 0.715}
{"Oligonucleotide": "UGAGUCAAGCUGGCCAUGAACGCGUACACUUCAGUUCAGCAGGAUGGGCUGGAGAGCCUCUCUGUGCAGCGGUGUGGGGUGAGCCCUGCUGUGGCCUCCUUGUGGUGGUC", "RBNS enrichment (R)": 0.559}
{"Oligonucleotide": "CAAUGAUUUUUUUUUAAACUUUCAAAGUGGUUGUUCAAAGUGUAGCAACUUGUAUGUUGAAAUGAUUGUAUGUUCUGUAUGAAAUGUUCCACUUGAGAUUUUUACAAAAG", "RBNS enrichment (R)": 7.51}
{"Oligonucleotide": "GGAAGCAUAGAUAUCUAUAUUUUUAUUUCUACUAUGAGGGCCUUGUAAUAAAUUUCUAAAGCCUCUGGUUGCUUGUAUGUUUUCGGCUUCUAGAACAACUAGGACCCCUG", "RBNS enrichment (R)": 4.53}
{"data": "Block 2", "target": "XBP1, bZIP domain (human)", "technique": "DHFR protein complementation", "medium": "yeast", "notes": "single substitutions, most at no-binding floor", "reference": "wild-type JUN-FOS pair", "direction": "higher = stronger binding", "starting sequence": "JUN, bZIP domain (human); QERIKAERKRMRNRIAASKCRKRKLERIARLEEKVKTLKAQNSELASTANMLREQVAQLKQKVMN; partner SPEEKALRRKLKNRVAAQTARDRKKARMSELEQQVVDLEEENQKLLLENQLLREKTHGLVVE"}
{"Change": "S43V", "binding fitness": "-0.793 natural log"}
{"Change": "M51K", "binding fitness": "-0.59 natural log"}
{"Change": "R53V", "binding fitness": "-1.57 natural log"}
{"Change": "K34G", "binding fitness": "-1.44 natural log"}
{"Change": "Q41V", "binding fitness": "-0.852 natural log"}
{"Change": "V35F", "binding fitness": "-1.45 natural log"}
{"Change": "T48A", "binding fitness": "-0.817 natural log"}
{"Change": "A29R", "binding fitness": "-0.68 natural log"}
{"data": "Block 3", "target": "Sal-like protein 4, full length isoform A (SALL4, Homo sapiens, UniProt Q9UJQ4, residues 1-1053)", "technique": "universal PBM", "form": "double-stranded DNA, one strand shown", "medium": "in vitro", "concentration": "600 nM", "notes": "8-mer, flanks averaged, mean of replicates", "direction": "higher = stronger binding", "UniProt Q9UJQ4, sequence (whole entry, looked up)": "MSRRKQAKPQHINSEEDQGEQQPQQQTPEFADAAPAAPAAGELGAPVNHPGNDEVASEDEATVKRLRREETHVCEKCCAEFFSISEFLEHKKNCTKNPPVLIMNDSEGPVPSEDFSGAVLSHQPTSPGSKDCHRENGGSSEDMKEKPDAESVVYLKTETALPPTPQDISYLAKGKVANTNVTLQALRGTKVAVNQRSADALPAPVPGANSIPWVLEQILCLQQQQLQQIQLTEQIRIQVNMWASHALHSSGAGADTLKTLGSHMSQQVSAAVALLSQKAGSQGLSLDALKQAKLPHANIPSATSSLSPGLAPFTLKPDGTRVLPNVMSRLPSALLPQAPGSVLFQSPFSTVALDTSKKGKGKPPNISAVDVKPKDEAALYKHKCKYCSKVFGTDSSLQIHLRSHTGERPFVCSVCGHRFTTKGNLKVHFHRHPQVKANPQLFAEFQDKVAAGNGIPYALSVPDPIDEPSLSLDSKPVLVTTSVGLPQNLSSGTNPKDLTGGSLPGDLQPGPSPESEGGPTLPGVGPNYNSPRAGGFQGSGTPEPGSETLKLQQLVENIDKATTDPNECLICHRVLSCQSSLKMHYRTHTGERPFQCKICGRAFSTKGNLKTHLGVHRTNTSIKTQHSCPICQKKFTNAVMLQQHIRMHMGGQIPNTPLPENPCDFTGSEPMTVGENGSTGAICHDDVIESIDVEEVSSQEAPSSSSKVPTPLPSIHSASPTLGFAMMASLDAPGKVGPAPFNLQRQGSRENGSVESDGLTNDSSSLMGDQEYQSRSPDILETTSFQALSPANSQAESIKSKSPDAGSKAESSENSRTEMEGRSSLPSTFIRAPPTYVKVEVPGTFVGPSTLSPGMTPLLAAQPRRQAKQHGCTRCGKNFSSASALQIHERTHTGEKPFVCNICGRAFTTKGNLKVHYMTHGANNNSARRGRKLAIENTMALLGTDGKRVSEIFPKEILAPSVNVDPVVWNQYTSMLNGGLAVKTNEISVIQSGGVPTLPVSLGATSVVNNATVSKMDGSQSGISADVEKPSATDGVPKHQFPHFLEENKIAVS"}
{"Oligonucleotide": "CGAATGAC", "E-score": 0.19}
{"Oligonucleotide": "AGGTTATC", "E-score": 0.101}
{"Oligonucleotide": "AGGGAGAT", "E-score": -0.169}
{"Oligonucleotide": "CCCTTATC", "E-score": -0.0332}
{"Oligonucleotide": "AGACGAAT", "E-score": 0.18}
{"Oligonucleotide": "ACTTGCTC", "E-score": -0.0509}
{"Oligonucleotide": "ACAAATCA", "E-score": 0.265}
{"Oligonucleotide": "TAGTGAAA", "E-score": 0.179}
{"data": "Single results of other studies"}
{"SMILES": "Fc1ccc(-c2nc3n(c2-c2ccncc2)CCS3)cc1", "target": "Tyrosine-protein kinase ZAP-70 (ZAP70, Homo sapiens, UniProt P43403)", "assay": "enzyme activity, inhibitor", "setting": "0.5 µM", "how to read": "reference: control", "measurement": "remaining activity", "value": "107%"}
{"note": "A few entries again (block 3):"}
{"Oligonucleotide": "CCCTTATC", "E-score": -0.0332}
{"Oligonucleotide": "TAGTGAAA", "E-score": 0.179}
{"Oligonucleotide": "CGAATGAC", "E-score": 0.19}
